Assay results from different studies.
Compare with care: the assays were run in different laboratories. Numbers after ± are the reported error.
B1: RAP1A 1-166 (Homo sapiens, UniProt P62834); sequence looked up; chain MREYKLVVLGSGGVGKSALTVQFVQGIFVEKYDPTIEDSYRKQVEVDCQQCMLEILDTAGTEQFTAMRDLYMKNGQGFALVYSITAQSTFNDLQDLREQILRVKDTEDVPMILVGNKCDLEDERVVGKEQGQNLARQWCNCAFLESSAKSKINVNEIFYDLVRQIN
B2: UBASH3A 276-340 (Homo sapiens, UniProt P57075); chain VHYQTLRALFQYKPQNVDELTLSPGDYIFVDPTQQDEASEGWVIGISQRTGCRGFLPENYTDRAS
B3: Bcl2l11 (Mus musculus, UniProt O54918-2); chain MAKQPSDVSSECDREGGQLQPAERPPQLRPGAPTSLQTEPQDRSPAPMSCDKSTQTPSPPCQAFNHYLSAMASIRQSQEEPEDLRPEIRIAQELRRIGDEFNETYTRRVFANDYREAEDHPQMVILQLLRFIFRLVWRRH
B4: Cacna1c 1647-1777 (Mus musculus, UniProt Q01815); sequence looked up; chain NALSLQAGLRTLHDIGPEIRRAISGDLTAEEELDKAMKEAVSAASEDDIFRRAGGLFGNHVTYYQSDSRGNFPQTFATQRPLHINKTGNNQADTESPSHEKLVDSTFTPSSYSSTGSNANINNANNTALGR
Chain of UniProt Q7M6Z0 (whole entry, looked up): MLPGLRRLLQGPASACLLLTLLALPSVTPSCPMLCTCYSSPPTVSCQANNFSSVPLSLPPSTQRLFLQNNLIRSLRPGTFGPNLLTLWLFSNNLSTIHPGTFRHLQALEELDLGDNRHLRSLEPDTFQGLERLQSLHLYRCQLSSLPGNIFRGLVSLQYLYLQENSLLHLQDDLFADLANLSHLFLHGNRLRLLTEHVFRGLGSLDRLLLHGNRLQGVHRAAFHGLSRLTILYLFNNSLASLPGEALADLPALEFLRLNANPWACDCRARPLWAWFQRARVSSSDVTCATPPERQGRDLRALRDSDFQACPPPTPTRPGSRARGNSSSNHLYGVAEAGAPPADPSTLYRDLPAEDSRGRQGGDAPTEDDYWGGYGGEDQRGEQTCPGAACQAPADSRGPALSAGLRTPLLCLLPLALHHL
Chain of UniProt P27986 (whole entry, unmodified, looked up): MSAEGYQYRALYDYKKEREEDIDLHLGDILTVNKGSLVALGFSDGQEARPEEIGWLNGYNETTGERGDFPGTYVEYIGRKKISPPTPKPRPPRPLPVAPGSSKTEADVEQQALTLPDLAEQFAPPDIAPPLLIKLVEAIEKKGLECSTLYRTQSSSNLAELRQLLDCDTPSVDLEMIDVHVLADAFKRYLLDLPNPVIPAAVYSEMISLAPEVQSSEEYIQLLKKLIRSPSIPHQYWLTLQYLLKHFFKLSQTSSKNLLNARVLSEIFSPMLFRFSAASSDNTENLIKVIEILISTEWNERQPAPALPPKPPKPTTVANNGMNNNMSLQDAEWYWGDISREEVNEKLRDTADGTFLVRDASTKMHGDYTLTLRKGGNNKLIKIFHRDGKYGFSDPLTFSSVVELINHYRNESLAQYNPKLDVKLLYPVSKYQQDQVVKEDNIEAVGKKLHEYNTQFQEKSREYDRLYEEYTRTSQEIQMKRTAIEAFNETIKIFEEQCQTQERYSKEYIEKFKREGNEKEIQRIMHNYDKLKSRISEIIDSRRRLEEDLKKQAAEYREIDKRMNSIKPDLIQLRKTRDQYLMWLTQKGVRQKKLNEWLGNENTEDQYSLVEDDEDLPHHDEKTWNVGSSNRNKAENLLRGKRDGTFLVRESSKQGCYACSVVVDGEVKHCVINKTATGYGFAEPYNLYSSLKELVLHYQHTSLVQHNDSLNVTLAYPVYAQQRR
Chain of UniProt P26039 (whole entry, looked up): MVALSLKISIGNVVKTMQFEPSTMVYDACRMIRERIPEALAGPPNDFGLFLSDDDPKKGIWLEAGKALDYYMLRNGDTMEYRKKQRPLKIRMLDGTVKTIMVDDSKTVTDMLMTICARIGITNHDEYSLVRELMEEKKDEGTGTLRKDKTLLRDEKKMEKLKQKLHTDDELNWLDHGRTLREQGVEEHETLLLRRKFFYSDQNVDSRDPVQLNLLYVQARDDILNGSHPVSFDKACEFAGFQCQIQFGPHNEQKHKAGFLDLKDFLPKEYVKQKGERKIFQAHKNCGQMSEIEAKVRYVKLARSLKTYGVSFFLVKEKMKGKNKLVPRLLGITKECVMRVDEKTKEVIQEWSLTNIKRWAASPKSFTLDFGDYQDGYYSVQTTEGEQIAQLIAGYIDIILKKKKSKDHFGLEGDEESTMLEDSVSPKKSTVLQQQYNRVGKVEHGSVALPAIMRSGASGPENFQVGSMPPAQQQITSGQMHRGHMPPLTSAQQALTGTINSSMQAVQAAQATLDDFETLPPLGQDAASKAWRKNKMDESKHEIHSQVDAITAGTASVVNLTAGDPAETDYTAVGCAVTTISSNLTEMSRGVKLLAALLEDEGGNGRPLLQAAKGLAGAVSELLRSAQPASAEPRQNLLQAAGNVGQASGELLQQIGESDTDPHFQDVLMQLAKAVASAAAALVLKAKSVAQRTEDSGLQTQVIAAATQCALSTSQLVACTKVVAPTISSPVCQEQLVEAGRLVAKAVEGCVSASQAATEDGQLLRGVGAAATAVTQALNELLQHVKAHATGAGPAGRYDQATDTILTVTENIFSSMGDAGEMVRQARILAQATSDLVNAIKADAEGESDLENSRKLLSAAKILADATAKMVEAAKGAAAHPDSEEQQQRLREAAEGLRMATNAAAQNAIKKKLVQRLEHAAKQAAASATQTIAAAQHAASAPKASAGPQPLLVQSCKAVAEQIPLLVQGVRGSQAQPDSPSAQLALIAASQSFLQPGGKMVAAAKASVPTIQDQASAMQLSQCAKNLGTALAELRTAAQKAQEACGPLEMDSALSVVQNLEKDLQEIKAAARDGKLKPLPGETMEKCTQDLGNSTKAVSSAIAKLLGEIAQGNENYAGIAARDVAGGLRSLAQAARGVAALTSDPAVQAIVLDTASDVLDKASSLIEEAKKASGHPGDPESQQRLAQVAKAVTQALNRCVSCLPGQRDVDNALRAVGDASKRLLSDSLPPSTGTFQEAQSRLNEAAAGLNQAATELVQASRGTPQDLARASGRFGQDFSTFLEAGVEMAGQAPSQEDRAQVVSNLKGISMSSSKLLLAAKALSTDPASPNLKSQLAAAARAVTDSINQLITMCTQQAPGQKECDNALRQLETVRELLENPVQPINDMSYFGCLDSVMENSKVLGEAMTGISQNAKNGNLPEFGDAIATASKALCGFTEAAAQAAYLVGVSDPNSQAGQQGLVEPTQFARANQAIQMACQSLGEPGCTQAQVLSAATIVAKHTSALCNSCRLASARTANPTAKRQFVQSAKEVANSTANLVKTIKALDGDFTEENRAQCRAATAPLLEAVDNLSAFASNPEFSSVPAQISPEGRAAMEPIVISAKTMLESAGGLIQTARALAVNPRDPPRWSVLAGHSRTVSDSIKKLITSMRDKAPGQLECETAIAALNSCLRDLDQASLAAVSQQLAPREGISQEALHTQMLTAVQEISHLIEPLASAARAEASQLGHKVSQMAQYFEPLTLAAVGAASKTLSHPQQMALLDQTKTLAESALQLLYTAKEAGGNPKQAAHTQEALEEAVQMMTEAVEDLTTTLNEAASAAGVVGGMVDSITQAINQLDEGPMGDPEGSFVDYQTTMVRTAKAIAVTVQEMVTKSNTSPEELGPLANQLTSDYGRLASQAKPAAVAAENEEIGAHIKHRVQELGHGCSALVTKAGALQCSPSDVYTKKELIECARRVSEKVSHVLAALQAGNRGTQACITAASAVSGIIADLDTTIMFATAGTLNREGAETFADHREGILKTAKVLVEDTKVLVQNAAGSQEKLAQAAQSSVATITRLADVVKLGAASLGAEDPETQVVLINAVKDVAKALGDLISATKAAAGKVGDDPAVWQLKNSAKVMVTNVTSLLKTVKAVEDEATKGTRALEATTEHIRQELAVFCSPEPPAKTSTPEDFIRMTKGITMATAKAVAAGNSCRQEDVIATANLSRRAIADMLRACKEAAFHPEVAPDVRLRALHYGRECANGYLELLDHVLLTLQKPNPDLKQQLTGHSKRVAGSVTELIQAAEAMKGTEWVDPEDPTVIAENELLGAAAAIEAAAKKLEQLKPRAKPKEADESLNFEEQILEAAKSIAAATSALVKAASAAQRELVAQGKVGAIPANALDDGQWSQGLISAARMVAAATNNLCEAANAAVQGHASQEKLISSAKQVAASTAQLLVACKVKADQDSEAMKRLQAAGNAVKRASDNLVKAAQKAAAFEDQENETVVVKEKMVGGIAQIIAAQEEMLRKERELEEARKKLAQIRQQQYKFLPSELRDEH
Chain of UniProt O08808 (whole entry, looked up): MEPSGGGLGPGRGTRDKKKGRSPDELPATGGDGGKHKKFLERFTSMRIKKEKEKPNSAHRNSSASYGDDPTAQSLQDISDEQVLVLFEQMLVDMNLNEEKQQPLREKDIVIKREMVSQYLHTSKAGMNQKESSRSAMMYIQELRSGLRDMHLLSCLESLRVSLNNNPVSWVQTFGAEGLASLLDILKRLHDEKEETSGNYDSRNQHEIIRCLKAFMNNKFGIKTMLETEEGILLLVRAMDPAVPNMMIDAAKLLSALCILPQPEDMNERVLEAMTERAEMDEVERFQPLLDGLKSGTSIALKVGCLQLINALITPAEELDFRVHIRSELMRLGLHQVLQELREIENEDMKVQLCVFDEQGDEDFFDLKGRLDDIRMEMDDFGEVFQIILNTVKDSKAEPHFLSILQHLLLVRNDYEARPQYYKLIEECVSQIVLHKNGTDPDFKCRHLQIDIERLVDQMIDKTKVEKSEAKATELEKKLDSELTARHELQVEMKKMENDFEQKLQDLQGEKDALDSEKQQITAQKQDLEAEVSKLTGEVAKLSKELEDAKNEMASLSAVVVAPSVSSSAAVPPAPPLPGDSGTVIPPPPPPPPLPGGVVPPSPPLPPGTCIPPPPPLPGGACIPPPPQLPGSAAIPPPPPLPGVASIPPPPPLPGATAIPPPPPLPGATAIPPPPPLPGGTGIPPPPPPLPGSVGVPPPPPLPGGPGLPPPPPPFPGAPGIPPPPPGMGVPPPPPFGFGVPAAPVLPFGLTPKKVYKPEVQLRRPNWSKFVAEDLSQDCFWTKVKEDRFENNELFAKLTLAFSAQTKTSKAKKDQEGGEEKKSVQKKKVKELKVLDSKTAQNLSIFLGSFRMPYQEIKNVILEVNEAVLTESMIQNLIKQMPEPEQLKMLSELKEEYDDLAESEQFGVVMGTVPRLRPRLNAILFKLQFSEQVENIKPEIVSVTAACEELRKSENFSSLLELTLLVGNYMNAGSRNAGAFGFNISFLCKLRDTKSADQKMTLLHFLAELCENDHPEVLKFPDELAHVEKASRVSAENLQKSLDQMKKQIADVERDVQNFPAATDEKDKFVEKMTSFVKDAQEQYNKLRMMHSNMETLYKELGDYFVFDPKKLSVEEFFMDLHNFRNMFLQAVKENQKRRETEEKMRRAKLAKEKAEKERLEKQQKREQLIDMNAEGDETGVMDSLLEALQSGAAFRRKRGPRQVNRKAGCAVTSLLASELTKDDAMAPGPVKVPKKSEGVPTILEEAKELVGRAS

With `Diaph1 (Mus musculus, UniProt O08808)` the Kd was 0.071 µM (ACTA1/Capza1/Capzb CP-capped barbed end filament, Alexa-488 label (Oryctolagus cuniculus/Mus musculus); CP detachment from filament, mf-TIRF; apparent, hyperbolic fit, ADP-Pi-actin, with: Pi 50 mM).
For `SCN2A fragment Q1913A (Homo sapiens) (sequence not shown)`, the Kd was 0.612 µM (CALM1 (Homo sapiens, UniProt P0DP23); fluorescence titration; with: CaCl2).
The Kd of `PSPHGTRRHLPSPP (SOS1 proline-rich peptide, 1264-1277)` is reported as 400 µM (GRB2 156-215 (Homo sapiens, UniProt P62993); NMR titration; peptide).
`B1 (RAP1A 1-166)` has a Kd of 31 ± 5 µM (PREX1 (Homo sapiens, UniProt Q8TCU6); fluorescence titration; with: mant-GTP 1 µM).
For `B2 (UBASH3A 276-340)`, the Kd was 23.8 ± 3.2 µM (PIK3R1 80-724 (Homo sapiens, UniProt P27986); ITC).
The Kd of `B3 (Bcl2l11)` is reported as 6 µM (BCL2L1 (Homo sapiens, UniProt Q07817-1); FRET or BRET; not purified).
For `Adgrb1 fragment (Mus musculus)`, the Kd was 0.03 µM (RTN4RL2 extracellular domain (Mus musculus, UniProt Q7M6Z0); SPR).
For `GCVRLHESCLGQQVPCCDPAATCYCEGRGDRDMKCYCR (designed binder)`, the Kd was 0.0083 µM (ITGAV/ITGB3 U87MG cells (Homo sapiens); flow cytometry; designed binder, U87MG).
With `Peginesatide` the mRNA level was 4.9 fold (UT7/EPO; RT-qPCR, refers to: BMP2; concentration not given, 90 min, normalized to HPRT1; reference: vehicle).
`GSGAGQITKV` — result for “normalised SPR binding response”: 22.7 normalised RU (human MAGI1-3/6 PDZ construct (MBP fusion); surface plasmon resonance; peptide; concentration not given; higher = stronger binding).
With `B4 (Cacna1c 1647-1777)` the Kd was 5.85 µM (Jph2 1-440 S165M (Mus musculus, UniProt Q9ET78); ITC).
`GSGAGKETRV` — result for “normalised SPR binding response”: 38.9 normalised RU (human MAGI1-2/6 PDZ construct (MBP fusion); surface plasmon resonance; peptide; concentration not given; higher = stronger binding).
`colistin` gave an MIC of no more than 1 µg/mL (Pseudomonas aeruginosa; clinical isolate RKI 402/14).
`ENAH EVH1 domain (Homo sapiens)` gave a Kd of 11.8 µM (WBP2 20-residue peptide (Homo sapiens); BLI).
With `NEDIDQMFSTLLGEMDLLTQS (RIAM talin-binding site peptide 5-25 (Mus musculus, UniProt Q8R5A3); FITC label; sequence looked up)` the Kd was 6.6 µM (Tln1 1357-1657 (Mus musculus, UniProt P26039); fluorescence polarization; peptide; with: FITC-labeled peptide 20 nM).

Some of these lines once more:
`colistin` gave an MIC of no more than 1 µg/mL (Pseudomonas aeruginosa; clinical isolate RKI 402/14).
`GSGAGQITKV` — result for “normalised SPR binding response”: 22.7 normalised RU (human MAGI1-3/6 PDZ construct (MBP fusion); surface plasmon resonance; peptide; concentration not given; higher = stronger binding).
